{"data": "Measured values gathered from unrelated publications", "CYP2C19": "Cytochrome P450 2C19 (CYP2C19, Homo sapiens, UniProt P33261)", "note": "Lines come from different studies, so protocols differ. Numbers after ± are the reported error.", "UniProt P33261, sequence (whole entry, looked up)": "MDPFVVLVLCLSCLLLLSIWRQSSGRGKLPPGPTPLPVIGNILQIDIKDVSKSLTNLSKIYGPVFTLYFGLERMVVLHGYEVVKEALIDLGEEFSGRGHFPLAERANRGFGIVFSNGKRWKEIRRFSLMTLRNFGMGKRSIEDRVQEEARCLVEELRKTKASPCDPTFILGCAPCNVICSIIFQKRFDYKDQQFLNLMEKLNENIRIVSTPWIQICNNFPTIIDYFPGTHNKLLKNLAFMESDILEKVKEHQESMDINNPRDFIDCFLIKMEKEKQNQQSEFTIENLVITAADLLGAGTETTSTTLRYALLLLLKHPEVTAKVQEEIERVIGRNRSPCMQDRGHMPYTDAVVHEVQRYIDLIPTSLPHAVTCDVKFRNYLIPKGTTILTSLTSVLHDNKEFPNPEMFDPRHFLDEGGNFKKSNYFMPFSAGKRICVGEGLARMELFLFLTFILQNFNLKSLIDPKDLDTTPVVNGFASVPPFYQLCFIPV", "UniProt Q06520, sequence (whole entry, looked up)": "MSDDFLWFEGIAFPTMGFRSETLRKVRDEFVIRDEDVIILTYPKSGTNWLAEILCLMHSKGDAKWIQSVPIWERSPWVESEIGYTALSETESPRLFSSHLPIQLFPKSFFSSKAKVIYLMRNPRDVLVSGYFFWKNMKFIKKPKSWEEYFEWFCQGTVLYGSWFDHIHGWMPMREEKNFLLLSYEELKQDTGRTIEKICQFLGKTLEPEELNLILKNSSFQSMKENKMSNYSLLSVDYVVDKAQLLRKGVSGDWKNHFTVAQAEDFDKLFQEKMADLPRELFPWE", "UniProt O60656, sequence (whole entry, looked up)": "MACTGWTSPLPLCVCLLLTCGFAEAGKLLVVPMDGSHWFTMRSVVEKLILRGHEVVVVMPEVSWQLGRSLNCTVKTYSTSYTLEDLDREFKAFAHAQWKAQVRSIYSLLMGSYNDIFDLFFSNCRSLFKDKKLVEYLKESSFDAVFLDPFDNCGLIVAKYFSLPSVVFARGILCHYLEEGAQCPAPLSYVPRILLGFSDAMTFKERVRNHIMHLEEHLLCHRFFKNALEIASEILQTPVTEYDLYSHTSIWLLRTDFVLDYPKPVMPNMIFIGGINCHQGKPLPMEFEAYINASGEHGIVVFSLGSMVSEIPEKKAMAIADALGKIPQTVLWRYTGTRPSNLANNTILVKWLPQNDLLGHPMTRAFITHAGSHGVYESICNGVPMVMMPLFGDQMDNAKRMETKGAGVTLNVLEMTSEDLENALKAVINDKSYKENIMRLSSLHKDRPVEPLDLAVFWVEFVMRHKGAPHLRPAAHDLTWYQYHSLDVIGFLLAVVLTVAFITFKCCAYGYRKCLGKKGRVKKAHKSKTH"}
{"SMILES": "CN[C@](C)(C[18F])C(=O)O", "tested on": "SK-OV-3 tumour model", "system": "host not given, kidney", "setting": "15 min, tumour-bearing", "endpoint": "tracer uptake", "value": "25 %ID/g"}
{"SMILES": "CN(C)CC1CCCCC1(O)c1cccc(O)c1 (centres unmarked)", "tested on": "human P-glycoprotein", "system": "Caco-2 TC7 monolayer", "setting": "50 µM, 3 h, apical pH 7.4, basolateral pH 7.4, with: cyclosporine A 10 µM", "how to read": "reference: B-to-A over A-to-B", "endpoint": "efflux ratio", "value": 1.3}
{"SMILES": "COc1cc(C(=O)NCCOCCOCCOCCNC(=O)c2ccc([18F])nc2)ccc1NC(=O)C1NC(CC(C)(C)C)C(C#N)(c2ccc(Cl)cc2F)C1c1cccc(Cl)c1F (centres unmarked)", "tested on": "HepG2 tumour model", "system": "host not given, kidney", "setting": "4 h, tumour-bearing", "endpoint": "tracer uptake", "value": "1.01 %ID/g"}
{"SMILES": "COc1ccc(CCNc2cc(-c3ccccc3)nc3ncnn23)cc1", "system": "mouse liver microsomes", "endpoint": "intrinsic clearance", "value": "9.8 mL/min/g"}
{"SMILES": "COc1ccc(CNc2nc(N3CCC[C@H]3CO)ncc2C(=O)NN)cc1Cl", "tested on": "Salmonella typhimurium", "system": "TA1535", "setting": "62.5 µg/plate, 48 h", "endpoint": "revertant count", "value": "56 ± 2"}
{"SMILES": "CC(C)[C@H](NC(=O)CNC(=O)[C@H](CCC(N)=O)NC(=O)[C@H](C)N)C(=O)O", "system": "human", "setting": "3 mg/kg single dose", "endpoint": "subjects with severe adverse events", "value": "0%"}
{"SMILES": "[64Cu+2].c1ccc(CNCc2ccc(CN3CCCNCCNCCCNCC3)cc2)nc1", "tested on": "CXCR4", "system": "NOD/SCID mouse, tumour", "setting": "90 min", "how to read": "reference: U87-stb-CXCR4 over U87", "endpoint": "uptake ratio", "value": "6.44 ± 2.45"}
{"SMILES": "CN(C)C(CNC(=O)Nc1cc(C(F)(F)F)ccc1N1CCOCC1)c1ccncc1 (centres unmarked)", "system": "mouse, serum", "setting": "intraperitoneal, 240 mg/kg single dose", "endpoint": "serum anion gap", "value": "20 mmol/L"}
{"SMILES": "CCCCCc1cc(O)c2c(c1)OC(C)(C)C1CCC(C)=CC21 (single isomer, unassigned; (-))", "tested on": "UDP-glucuronosyltransferase 1A9 (UGT1A9, Homo sapiens, UniProt O60656)", "test": "propofol glucuronidation, inhibitor", "system": "HEK293 microsomes", "setting": "with: propofol", "how to read": "reference: UGT1A9 over UGT2B7", "endpoint": "IC50 ratio", "value": "6 fold"}
{"SMILES": "Nc1nc2c([C@@H]3O[C@@H]4COP(=O)(O)O[C@H]5[C@@H](O)[C@H](n6cnc7c(=O)[nH]c(N)nc76)O[C@@H]5COP(=O)(O)O[C@H]4[C@H]3O)snc2c(=O)[nH]1", "system": "water", "endpoint": "molar absorption coefficient", "value": "4380 M⁻¹ cm⁻¹"}
{"SMILES": "Oc1cc(O)c2c(c1)O[C@@]1(c3ccc(O)c(O)c3)Oc3cc(O)c4c(c3[C@@H]2[C@H]1O)O[C@H](c1ccc(O)c(O)c1)[C@H](O)C4", "tested on": "human cells", "endpoint": "CC50", "value": "797 ± 63.7 µM"}
{"SMILES": "COc1ccc2nc(C)cc(OCC(=O)Nc3cc(C)cc(C)c3)c2c1", "test": "CLND", "system": "phosphate-buffered saline", "setting": "1 (unit not given), pH 7.4", "endpoint": "kinetic solubility", "value": "32 µM"}
{"SMILES": "C[C@@](O)(C(F)F)[C@H](NC(=O)c1ccc(C#CC#CC2CC2)cc1)C(=O)NO", "system": "dog, plasma", "setting": "oral, 50 mg/kg", "endpoint": "Cmax", "value": "7700 ng/mL"}
{"SMILES": "CCC(=O)N(C)c1ccc(Cl)c(Cl)c1", "tested on": "Salmonella typhimurium", "test": "Ames test", "system": "TA98", "setting": "1.00 mg/plate, without S9 activation", "endpoint": "revertants", "value": "5 ± 0.6 revertants/plate"}
{"SMILES": "CC[C@H](C)C(=O)N1CCC(NC(=O)Nc2ccc(OC(F)(F)F)c(F)c2)CC1", "system": "healthy volunteers", "setting": "oral, 2 mg single dose, 14 (unit not given)", "endpoint": "subjects with moderate TEAE", "value": "16.7%"}
{"SMILES": "N[C@]1(c2ccccc2Cl)CCC[C@H](O)C1=O", "system": "Wistar rat, plasma", "setting": "intravenous, 20 mg/kg, 20 min", "endpoint": "plasma concentration", "value": "8340 ± 606 ng/mL"}
{"SMILES": "OC[C@H]1O[C@@H](OCCc2ccccc2)[C@H](O)[C@@H](O)[C@@H]1O", "tested on": "human cells", "endpoint": "CC50", "value": "> 100 µM"}
{"SMILES": "C=C(C)[C@@H]1CCC(C(=O)O)=C[C@H]1c1c(O)cc(CCCCC)cc1O", "tested on": "CYP2C19", "setting": "concentration not given, single dose, with: fluconazole steady state", "endpoint": "decrease in AUC(0-tau)", "value": "34%"}
{"SMILES": "O=C(O)CCC(NP(=O)(O)OCCC[C@@H](NC(=O)CCC(NC(=O)CCCCCNC(=O)c1ccc([18F])cc1)C(=O)O)C(=O)O)C(=O)O (some centres unmarked)", "tested on": "CWR22Rv1 tumour model", "system": "host not given, bone", "setting": "intravenous, 1 h, tumour-bearing", "endpoint": "tracer uptake", "value": "0.38 %ID/g"}
{"SMILES": "Nc1nc2c([C@@H]3O[C@@H]4COP(=O)(O)O[C@H]5[C@@H](O)[C@H](n6cnc7c(=O)[nH]c(N)nc76)O[C@@H]5COP(=O)(O)O[C@H]4[C@H]3O)scc2c(=O)[nH]1", "system": "water", "endpoint": "absorption maximum", "value": "317 nm"}
{"SMILES": "C=C(C)[C@@H]1CCC(CO)=C[C@H]1c1c(O)cc(CCCCC)cc1O", "tested on": "CYP2C19", "system": "human", "setting": "750 mg single dose, alone, fluconazole arm baseline", "endpoint": "half-life", "value": "18.8 h"}
{"SMILES": "C[C@]12CC[C@H](O)CC1CCC1C2[C@H](O)C(=O)[C@]2(C)[C@@H](c3ccc(=O)oc3)CC[C@]12O (some centres unmarked)", "tested on": "Sulfotransferase 2A1 (SULT2A1, Homo sapiens, UniProt Q06520)", "test": "sulfation, substrate", "system": "human kidney cytosol", "setting": "pH 7.4", "how to read": "reference: liver cytosol over kidney cytosol", "endpoint": "activity ratio", "value": "31.1 fold"}
{"SMILES": "O=C(O)CCC(NP(=O)(O)OCCC[C@@H](NC(=O)CCC(NC(=O)c1ccc([18F])cc1)C(=O)O)C(=O)O)C(=O)O (some centres unmarked)", "tested on": "CWR22Rv1 tumour model", "system": "host not given, liver", "setting": "intravenous, 1 h, tumour-bearing", "endpoint": "tracer uptake", "value": "0.83 %ID/g"}
{"SMILES": "COc1ccc(CNc2nc(N3CCC[C@H]3CO)ncc2C(=O)NNC(=O)c2cnc(N3CCC[C@H]3CO)nc2NCc2ccc(OC)c(Cl)c2)cc1Cl", "tested on": "Salmonella typhimurium", "system": "TA97a", "setting": "500 µg/plate, 48 h", "endpoint": "revertant count", "value": "129 ± 26"}
{"SMILES": "CSCC[C@@H]1NC(=O)[C@@H]2CSSC[C@H](NC(=O)[C@H](CO)NC(=O)[C@H](C)N)C(=O)N[C@@H](CCCNC(=N)N)C(=O)N[C@@H]([C@@H](C)O)C(=O)N3CCC[C@H]3C(=O)N[C@@H](CCCCN)C(=O)N[C@@H](CC(=O)O)C(=O)N[C@H]3CSSC[C@H](NC(=O)[C@H](CCCCN)NC(=O)[C@H](CCCNC(=N)N)NC(=O)[C@H](CC(N)=O)NC1=O)C(=O)N[C@@H](CCCCN)C(=O)N[C@H]1CSSC[C@H](NC(=O)[C@@H]4CCCN4C(=O)[C@H](CC(=O)O)NC(=O)[C@H](C)NC3=O)C(=O)N[C@@H](C)C(=O)N[C@@H](CCCCN)C(=O)N[C@@H](CCC(=O)O)C(=O)N[C@@H]([C@@H](C)O)C(=O)NCC(=O)N[C@@H](CSSC[C@@H](C(N)=O)NC(=O)[C@H](CCCNC(=N)N)NC(=O)[C@H](CC(N)=O)NC1=O)C(=O)N1CCC[C@H]1C(=O)N[C@@H](Cc1ccc(O)cc1)C(=O)NCC(=O)N[C@@H](CCCCN)C(=O)N2", "system": "DA rat, pristane-induced arthritis, serum", "setting": "subcutaneous, single 0.1 mg/kg at onset, end of 21-day trial", "endpoint": "alkaline phosphatase", "value": "52 U/L"}
{"SMILES": "O=C(O)CCC(NP(=O)(O)OCCC[C@@H](NC(=O)CCC(NC(=O)CCCCCNC(=O)CCCCCNC(=O)c1ccc([18F])cc1)C(=O)O)C(=O)O)C(=O)O (some centres unmarked)", "tested on": "CWR22Rv1 tumour model", "system": "host not given, spleen", "setting": "intravenous, 2 h, tumour-bearing", "endpoint": "tracer uptake", "value": "0.19 %ID/g"}
